Measurements gathered from unrelated publications.
Each line is one published result; not all experiments were run side by side. Numbers after ± are the reported error. ≈ marks a conversion by molar mass, not a printed value.

Amino acid sequences for entries named in this document (tags omitted).
UniProt Q9Y2U5, whole entry: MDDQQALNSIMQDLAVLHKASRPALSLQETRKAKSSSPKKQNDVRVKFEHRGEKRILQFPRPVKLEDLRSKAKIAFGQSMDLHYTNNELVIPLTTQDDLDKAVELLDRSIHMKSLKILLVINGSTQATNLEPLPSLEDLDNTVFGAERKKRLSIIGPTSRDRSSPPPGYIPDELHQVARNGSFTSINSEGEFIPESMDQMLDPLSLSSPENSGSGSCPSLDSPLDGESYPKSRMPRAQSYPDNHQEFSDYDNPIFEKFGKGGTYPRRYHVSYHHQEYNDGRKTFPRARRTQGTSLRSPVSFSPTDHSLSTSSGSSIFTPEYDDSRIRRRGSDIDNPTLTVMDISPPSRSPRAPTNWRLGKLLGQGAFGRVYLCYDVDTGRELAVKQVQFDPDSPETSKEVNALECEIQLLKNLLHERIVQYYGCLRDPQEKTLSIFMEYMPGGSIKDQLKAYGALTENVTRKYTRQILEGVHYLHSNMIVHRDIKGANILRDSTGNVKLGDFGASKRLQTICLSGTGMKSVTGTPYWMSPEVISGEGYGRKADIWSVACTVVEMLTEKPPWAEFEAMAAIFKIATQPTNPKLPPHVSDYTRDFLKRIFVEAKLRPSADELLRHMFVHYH
UniProt P07550, whole entry: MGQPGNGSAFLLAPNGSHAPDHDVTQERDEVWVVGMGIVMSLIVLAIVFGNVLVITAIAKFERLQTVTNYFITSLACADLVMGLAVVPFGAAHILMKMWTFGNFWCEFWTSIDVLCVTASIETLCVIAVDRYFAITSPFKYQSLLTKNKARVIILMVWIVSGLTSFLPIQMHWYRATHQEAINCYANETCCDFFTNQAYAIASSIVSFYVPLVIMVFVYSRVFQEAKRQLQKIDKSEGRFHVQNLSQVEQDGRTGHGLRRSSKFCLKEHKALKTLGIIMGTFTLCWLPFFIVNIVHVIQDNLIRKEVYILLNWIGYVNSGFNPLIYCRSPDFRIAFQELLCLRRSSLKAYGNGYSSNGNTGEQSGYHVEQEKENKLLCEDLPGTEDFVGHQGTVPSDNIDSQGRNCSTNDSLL

O=c1ccc2nc3ccc(OCC4(CO)COC4)cc3oc-2c1 — MIC90 (Mycobacterium tuberculosis; mc2 6206 bedaquiline-resistant MmpL5 regulator mutant; 7 days): > 256 µM
CC[C@H](C)[C@@H]1NC(=O)[C@H](CCC(=O)O)NC(=O)[C@@H]2CCCN2C(=O)[C@H](Cc2c[nH]cn2)NC(=O)[C@H](CC(=O)O)NC(=O)[C@H](Cc2ccc(O)cc2)NC(=O)[C@H](CC(N)=O)NC(=O)[C@@H]2CSSC[C@@H]3NC(=O)CNC(=O)CNC(=O)CNC(=O)[C@H](C)NC(=O)[C@H](C)NC(=O)CNC(=O)CNC(=O)[C@H](CSSC[C@H](NC3=O)C(=O)N[C@@H](CO)C(=O)N[C@@H](CC(=O)O)C(=O)N3CCC[C@H]3C(=O)N[C@@H](CCCNC(=N)N)C(=O)N2)NC1=O — inhibition (Cav2.1 human; Ba2+ current; 200 nM): 0%
CCCCCCC1c2ccc(O)cc2Oc2cc(O)ccc21 — MIC (Salmonella Typhimurium; SL1344; together with: NAB7061 4 µg/mL): 1.6 µg/mL (≈ 5.36 µM)
Cn1c([N+](=O)[O-])cnc1COc1ccc2nc3ccc(=O)cc-3oc2c1 — MIC90 (Mycobacterium tuberculosis; mc2 6206 clofazimine-resistant fbiC mutant; 7 days): > 256 µM
COc1ccc(Nc2cc(C)c3cc(NC(=O)c4ccc(N(C)C)cc4)ccc3n2)cc1 — IC50 (dengue virus 2; viral replication, plaque reduction; BHK-21, NGC): 1 to 10 µM
C(CCCCCN1COOC2(CCCC2)OOC2(CCCC2)OOC1)CCCCN1COOC2(CCCC2)OOC2(CCCC2)OOC1 — IC50 (K562; cytotoxicity, 7-AAD flow cytometry): 3.44 ± 0.17 µM
CCN1CCN(Cc2ccc(NC(=O)c3ccc(C)c(/C=C/c4cnc5[nH]ccc5c4OC)c3)cc2C(F)(F)F)CC1 — log2 fold change (Mitogen-activated protein kinase kinase kinase 2 (MAP3K2, Homo sapiens, UniProt Q9Y2U5); inhibitor, cell-based kinome screen; 5 µM; relative to: vehicle): -0.075
O=c1ccc2nc3ccc(OCC4CCCCC4)cc3oc-2c1 — MIC90 (Mycobacterium tuberculosis; mc2 6206 PA-824-resistant ddn mutant; 7 days): 138 µM (≈ 42.7 µg/mL)
CCN(CC)C(=O)Oc1ccc(C(=O)Nc2cccc3cc[nH]c23)cc1 — weighted decay time constant (NMDA receptor EPSC, inhibitor, whole-cell patch clamp; CA1 pyramidal neurons, mouse, hippocampal slices; 10 µM): 118 ± 9.8 ms
CCCN1CCN(c2ccc3c(c2)C2CC3CCN2C(=O)OCc2ccccc2)CC1 (stereo not drawn) — Ki (Beta-2 adrenergic receptor (ADRB2, Homo sapiens, UniProt P07550); binding, radioligand binding): > 10 µM
CCCCCCCCCCCCCC(=S)NCCCC[C@H](NC(=O)OCc1ccccc1)C(=O)Nc1cccc(O)c1 — GI50 (AsPC-1; cell growth): 8.6 ± 0.9 µM
COc1cc(OC)c2ccccc2c1C=C1C(=O)NC(=S)NC1=O — effective concentration (IL-2 secretion, inhibitor, ELISA, measured: IL-2; activated T cells, mouse; GDM-12 vehicle): 5 µM
O=c1ccc2nc3ccc(OC4CCCC4)cc3oc-2c1 — MIC90 (Mycobacterium tuberculosis; mc2 6206 PA-824-resistant ddn mutant; 7 days): 18 µM (≈ 5.06 µg/mL)
Cc1c(N2CC[C@@H](CN)C2)c(F)cc2c(=O)n(N)c(=O)n(C3CC3)c12 — maximal DNA cleavage (Staphylococcus aureus topoisomerase IV GrlA S81F): 39.5%
COCCOc1ccc2nc3ccc(=O)c(Cl)c-3oc2c1 — MIC90 (Mycobacterium tuberculosis; mc2 6206 bedaquiline-resistant MmpL5 regulator mutant; 7 days): > 256 µM
CO[C@]12CC[C@@]3(C[C@@H]1[C@@](C)(O)C(C)(C)C)[C@H]1Cc4c(Cl)cc(O)c5c4[C@@]3(CCN1CC1CC1)[C@H]2O5 — peak antiwrithing effect (PPQ-induced writhing test; mice; dose not given): 20%
CCc1nc(N)nc(N)c1C#CCc1cc(OC)c(OC)c(-c2ccncc2)c1 — MIC (Staphylococcus aureus; MRSA clinical isolate UCH 115, dfrA, SSTI): > 20 µg/mL
O=[N+]([O-])c1cn2c(n1)OC[C@@H](OCc1ccc(OC(F)(F)F)cc1)C2 — MIC50 (Mycobacterium bovis; BCG Tac^r2.3, fbiA L109P missense; TA-C-resistant F420 mutant): > 100 µM
CSc1nc(Cl)cc(Sc2nnc(-c3cc(C(F)(F)F)cc(C(F)(F)F)c3)[nH]2)n1 — MIC (Klebsiella pneumoniae; BARB 105): > 590 µg/mL
Cn1cc([N+](=O)[O-])nc1COc1ccc2nc3ccc(=O)cc-3oc2c1 — MIC90 (Mycobacterium tuberculosis; mc2 6206 PA-824-resistant ddn mutant; 7 days): > 256 µM
CC#C/C(=N\OC[C@H]1COCCN1)c1ccc2ncnc(Nc3ccc(OCc4cccc(F)c4)c(Cl)c3)c2c1 — IC50 (MDA-MB-453; cell growth, WST-8; 72 h): 0.0486 ± 0.0031 µM
